Published values pooled from the literature.
Numbered parts are unrelated; each lists some results of a single study. Changes are numbered by the printed parent chain.

Study 1 — method: RNA Bind-n-Seq; form: RNA; sample: in vitro; tested at: 200 nM; notes: whole 134-nt RNA, ends assumed; with: 150 mM KCl; reference: input library; reading: higher = stronger binding
Target: Fragile X messenger ribonucleoprotein 1, C-terminal low-complexity region (Fmr1, Mus musculus, UniProt P35922)
Shared flanks, not repeated: GGGAGUUCUACAGUCCGACGAUC … UGGAAUUCUCGGGUGUCAAGG
| Sequence | log2 enrichment |
| --- | --- |
| AGUCCUGUGCUACACAUCGUAUGUACCGAAUCGGGAAAGGGUUUUUGGGAAAAAGGGAAAGUAUUAUGUUACGCCGUUCGGAUCUGCACU | -0.0858 |
| UGGAGAGGGAAGUCCCAAUGGUGCUAGAAUGGUGCUGCAGUGGCAGAAGACGGCUCACAAGUGAGGUCUGGAAGAACAACAGGGAAGACA | 0.181 |
| UCCUGUGCUACACAUCGUAUGUACCGAAUCGGGGUUUUUGGGUUUUUGGGGUUUUUGGGGAAAGUAUUAUGUUACGCCGUUCGGAUCUGC | 0.466 |
| UGGCCCUGGUGGCAUGCGGGGAGGAAAAGGUGGCCUCAUGGAUCGUGGUGGUCCCGGUGGAAUGUUCAGAGGUGGCCGUGGUGGAGACAG | -0.0774 |
| CUCAAGUCCUGUGCUACACAUCGUAUGUACCGAAUCGGGGUGGGUGGGGUGGGAAAGUAUUAUGUUACGCCGUUCGGAUCUGCACUUCCA | 1.01 |
| GCAGGAAGUAAAAACAAAUGGAAAUGCUUCGGAUAGUGGCAGGGGUGGGGGUUGCUAAUGAAAGGGUGGGAUGGGAGUGGGUAAAGAGUU | 0.00591 |
| CUCAAGUCCUGUGCUACACAUCGUAUGUACCGAAUCGGAAGGAAGGGGAAGGGGAAAGUAUUAUGUUACGCCGUUCGGAUCUGCACUUCC | -0.0215 |
| CCUCAAGUCCUGUGCUACACAUCGUAUGUACCGAAUCGGUGGGGUGGGUGGGAAAGUAUUAUGUUACGCCGUUCGGAUCUGCACUUCCAG | 1.29 |
| UUUUAAAGUGUUCUCCACCACACUUGGGCAUUUAUCUGUUUCUUUAAAUGGCCUUCUCUGUUUCUUGUUUGCAGGCAGCUAUCAAUGGUG | 0.22 |
| UUUAGGUGUUAGACGGUACCGACAACCAGUAUUUGGGCCUGCAGAUUGGACAGCCCCAGGAUGAAGAUGAGGAAGCCACAGGUAUUCUUC | -1.92 |
| UGGUGACCUACCUGGACGUCCGGAGCUGCCUUGGACACCUAGGCUACCUGGGCUACCCCACCCUCUGUGAGCAGGACCAGGCCCAUGCCA | -0.635 |
| CAAGUCCUGUGCUACACAUCGUAUGUACCGAAUCGGGGAGGGGUGGGGUUUGGGGAAAGUAUUAUGUUACGCCGUUCGGAUCUGCACUUC | 1.44 |
| ACCAUGCAGGUGGGCAUCUUUGGGAAGUGGGGCAAGGGGGGGAUAGGGAGGGGGGUAACACUUUGGGGACAGGUGGUCCCAGGUCGUUUC | 0.731 |
| CUCAAGUCCUGUGCUACACAUCGUAUGUACCGAAUCGGGGAAGGAAGGAAGGGGAAAGUAUUAUGUUACGCCGUUCGGAUCUGCACUUCC | -0.21 |

Study 2 — method: protein binding microarray; form: double-stranded DNA, one strand shown; sample: in vitro; tested at: not given; reference: not given; reading: higher = stronger binding
Target: Histone acetyltransferase KAT6A, winged helix 1, GST fusion (KAT6A, Homo sapiens, UniProt Q92794, residues 1-85)
Notes: 8-mer, flanks averaged, mean of 2 arrays, mostly near background
Construct (chain): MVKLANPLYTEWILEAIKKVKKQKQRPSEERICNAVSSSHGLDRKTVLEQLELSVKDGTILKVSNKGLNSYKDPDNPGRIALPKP
| Sequence | E-score |
| --- | --- |
| CTGCCAAA | -0.151 |
| AAGCCGTA | 0.368 |
| ACATACCC | -0.131 |
| AAGCTCAA | -0.282 |
| ACGCTTTC | 0.111 |
| CCTGTCCG | 0.026 |
| CTAAGCAC | 0.00732 |
| TCCTAGCA | -0.00637 |
| CCCACCTC | -0.0988 |
| ACCTGCGC | 0.195 |
| ACTATCTG | -0.221 |
| ACATTCCT | -0.251 |
| ACCGGATA | 0.00959 |
| AACTGTTG | -0.153 |
| ACCGCATA | 0.13 |
| GAGAAGGC | -0.178 |
| ATGTGCTA | 0.0437 |
| CTTAAATC | -0.162 |
| GAATGGCC | 0.0708 |

Study 3 — target: CCNA2, cyclin fold, Cln2 fusion (human); method: yeast growth competition, sequencing; sample: yeast; notes: strong parent motif; reference: not given; reading: higher = stronger binding
Parent: PKN2 docking peptide (human); VSAVQKLDFSDTM
| Change | normalised enrichment score |
| --- | --- |
| S10A | 1.27 |
| T12D | 2.21 |
| F9W | -0.276 |
| F9C | -0.4 |
| M13K | 2.03 |
| S10D | 1.51 |
| D8R | 1.07 |
| L7K | -0.11 |
| F9V | -0.237 |
| S2P | 1 |
| V1E | 0.521 |
| F9I | -0.0882 |
| D8T | 1.31 |
| V4R | 4.34 |
| S10R | 1.33 |
| M13P | 1.92 |
| S10L | 0.773 |
| D8S | 1.57 |
| V1R | 3.35 |

Study 4 — target: UBE2V1 UBC core domain (UniProt Q13404); method: yeast two-hybrid; sample: yeast; notes: mostly zero background; reference: not given; reading: higher = stronger interaction
B1: RNF121 RING domain (UniProt Q9H920); chain MPTKHLSDSVCAVCGQQIFVDVSEEGIIENTYRLSCNHVFHEFCIRGWCIVGKKQTCPYCKEKVDLKRMFS
B2: DTX2 RING domain (UniProt Q86UW9); chain EELKVPPDEDCIICMEKLSTASGYSDVTDSKAIGSLAVGHLTKCSHAFHLLCLLAMYCNGNKDGSLQCPSCKTIYGEKTGTQ
B3: SH3RF1 RING domain (UniProt Q7Z6J0); chain DESALLDLLECPVCLERLDASAKVLPCQHTFCKRCLLGIVGSRNELRCPECRTLVGSGVEEL
B4: UBOX5 RING domain (UniProt O94941); chain EQPGSILGPECASCKRVFSPYFKKEPVYQLPCGHLLCRPCLGEKQRSLPMTCTACQRPVASQDVLR
B5: ZMIZ2 RING domain (UniProt Q8NF64); chain GTIPGTPGPNGEDGVEQTAIKVSLKCPITFRRIQLPARGHDCRHIQCFDLESYLQLNCERGTWRCPVCNKTALLEGLEVDQYMLGILIYIQNSDYEEITIDPTCSWK
B6: RBCK1 RING domain (UniProt Q9BYM8); chain SLVLNTEPAECPVCYSVLAPGEAVVLRECLHTFCRECLQGTIRNSQEAEVSCPFIDNTYSCSGKLLEREIK
B7: RFWD3 RING domain (UniProt Q6PCD5); chain ASMDEEEGDTCTICLEQWTNAGDHRLSALRCGHLFGYRCISTWLKGQVRKCPQCNKKARHSDIVV
B8: MDM4 RING domain (UniProt O15151); chain MEDCQNLLKPCSLCEKRPRDGNIIHGRTGHLVTCFHCARRLKKAGASCPICKKEIQLVIKVF
B9: SYTL4 RING domain (UniProt Q96C24); chain RGSQHYSDRTCARCQESLGRLSPKTNTCRGCNHLVCRDCRIQESNGTWRCKVCAKEIELKKAT
B10: RNF133 RING domain (UniProt Q8WVZ7); chain DEEINPNGDSCVICFERYKPNDIVRILTCKHFFHKNCIDPWILPHGTCPICKCDILKVLGIQ
Construct (chain): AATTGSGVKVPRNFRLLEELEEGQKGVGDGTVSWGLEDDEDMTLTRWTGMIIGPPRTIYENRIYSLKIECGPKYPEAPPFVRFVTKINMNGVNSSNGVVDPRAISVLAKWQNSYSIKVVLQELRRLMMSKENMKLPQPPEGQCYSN
| Molecule | lacZ reporter activity |
| --- | --- |
| YQNEVDDDLVCHICLQPLLQPLDTPCGHTFCYKCLRNFLQEKDFCPLDRKRLHFKLCKK (LNX2 RING domain (UniProt Q8N448)) | 0 |
| B1 (RNF121 RING domain) | 0 |
| FDGDVDPDLKCALCHKVLEDPLTTPCGHVFCAGCVLPWVVQEGSCPARCRGRLSAKELN (PDZRN3 RING domain (UniProt Q9UPQ7)) | 0 |
| B2 (DTX2 RING domain) | 0 |
| B3 (SH3RF1 RING domain) | 0 |
| KETIKKTTKPCPRCHVPVEKNGGCMHMKCPQPQCRLEWCWNCGCEWNRVCMG (PRKN RING domain (UniProt O60260)) | 0 |
| GSRLQEINDVCAICYHEFTTSARITPCNHYFHALCLRKWLYIQDTCPMCHQKVYIEDDIK (RNF139 RING domain (UniProt Q8WU17)) | 0 |
| B4 (UBOX5 RING domain) | 0 |
| B5 (ZMIZ2 RING domain) | 0 |
| B6 (RBCK1 RING domain) | 0 |
| AVPSGLEENLCKICMDSPIDCVLLECGHMVTCTKCGKRMNECPICRQYVIRAVHVF (RFFL RING domain (UniProt Q8WZ73)) | 0 |
| B7 (RFWD3 RING domain) | 0 |
| B8 (MDM4 RING domain) | 0 |
| B9 (SYTL4 RING domain) | 0 |
| B10 (RNF133 RING domain) | 0 |
| NLSELTPYILCSICKGYLIDATTITECLHTFCKSCIVRHFYYSNRCPKCNIVVHQTQPLY (PCGF6 RING domain (UniProt Q9BYE7)) | 0 |

Study 5 — method: DHFR PCA, dose-response; sample: yeast; notes: Hill fit, mean, not affinity; with: (+)-ABA, dose series; reading: lower = more sensitive
Target: ABI1, truncated, D143A, DHFR fusion (Arabidopsis thaliana, UniProt P49597)
Parent: PYL1, truncated, DHFR fusion (Arabidopsis thaliana, UniProt Q8VZS8); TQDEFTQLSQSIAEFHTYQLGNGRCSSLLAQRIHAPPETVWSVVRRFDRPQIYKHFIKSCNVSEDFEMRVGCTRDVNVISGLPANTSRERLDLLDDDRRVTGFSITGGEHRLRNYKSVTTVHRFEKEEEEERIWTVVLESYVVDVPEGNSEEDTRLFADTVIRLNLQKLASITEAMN
| Change | ABA EC50 |
| --- | --- |
| K54R | 177 µM |
| R88G | 120 µM |
| H34N | 4.19 µM |
| S59W | 36.9 µM |
| F15Y | 2.01 µM |
| L156Y | 3.92 µM |
| E67A | 2.82 µM |
| D153C | 73.5 µM |
| V70N | 36.6 µM |
| H122S | 72.5 µM |
| E130L | 4.64 µM |
| D97C | 4.82 µM |
| S27W | 233 µM |
| L156S | 2.38 µM |
| D92Y | 172 µM |
| K58Q | 2.69 µM |
| E152L | 5.48 µM |
| Y18C | 16.8 µM |
| I79S | 14 µM |
| G71K | 136 µM |
| I57C | 56.4 µM |
| R155M | 6.88 µM |
| E67W | 9.83 µM |
| S42H | 5.52 µM |
| E125Y | 1.32 µM |

Study 6 — target: BATF2, bZIP domain (human); method: DHFR protein complementation; sample: yeast; reference: wild-type JUN-FOS pair; reading: higher = stronger binding
Notes: single substitutions, most at no-binding floor
Parent: JUN, bZIP domain (human); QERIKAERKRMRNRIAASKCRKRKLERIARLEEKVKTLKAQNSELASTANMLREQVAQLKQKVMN; partner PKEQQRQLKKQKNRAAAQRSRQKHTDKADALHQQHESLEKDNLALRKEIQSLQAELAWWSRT
| Change | binding fitness [natural log] |
| --- | --- |
| E33F | -0.513 |
| R30H | -0.185 |
| A46Y | -0.5 |
| I28Q | -0.37 |
| V56P | -1.26 |
| Q55S | -0.67 |
| N42S | -1.31 |
| E54R | -0.472 |
| S43M | -0.246 |
| A49H | -1.28 |
| K34P | -1.3 |
| A29C | -0.561 |
| I28Y | -0.446 |
| L52C | -1.51 |
| A46W | -0.647 |
| A57T | -0.326 |
| M51I | -0.275 |
| M51F | -0.322 |
| K36W | -0.727 |

Some of these lines once more (study 5):
| Change | ABA EC50 |
| --- | --- |
| K54R | 177 µM |
| L156S | 2.38 µM |
| G71K | 136 µM |
| I57C | 56.4 µM |
| E152L | 5.48 µM |
| E125Y | 1.32 µM |
| D92Y | 172 µM |
| H122S | 72.5 µM |
| F15Y | 2.01 µM |
| I79S | 14 µM |
| L156Y | 3.92 µM |
| E67W | 9.83 µM |
| H34N | 4.19 µM |
| K58Q | 2.69 µM |
| S59W | 36.9 µM |
| R88G | 120 µM |
| E67A | 2.82 µM |
| D97C | 4.82 µM |
| R155M | 6.88 µM |
